Assay results from different studies.
Each line is one published result; not all experiments were run side by side. Several values in a cell are separate wells, animals, samples, runs or records. ± gives the spread as reported.

| SMILES | test | test system | conditions | scale | endpoint | value |
| --- | --- | --- | --- | --- | --- | --- |
| Cc1ccc(NC(=O)c2ccc(CN3CCN(C)CC3)cc2)cc1Nc1nccc(-c2cncc(-c3oncc3C)c2)n1 | – | mice, α-synuclein PFF-injected, brain | dose not given, therapeutic setting | – | dopaminergic neurons preserved | ≥ 85% |
| COc1cc2cc(-c3ccc(CC(=O)Nc4cc(C(C)(C)C(F)(F)F)no4)cn3)cnc2cc1OC | RECIST v1.1 | RET-altered advanced solid tumour patients | oral, 75 mg once daily, phase I | – | stable disease as best response | 54% |
| C=CCn1c(=O)c2cnc(Nc3ccc(N4CCN(C)CC4)cc3)nc2n1-c1ccc2c(n1)[C@@](O)(CC)CC2 | – | MDA-MB-468 xenograft, CB17 SCID mice | oral, 80 mg/kg, day 56, once daily x 56 | – | tumour growth inhibition | 87.1% |
| CN(CCOc1ccc(CC2SC(=O)NC2=O)cc1)c1ccccn1 (racemic) | indirect calorimetry | lean mice | dose not given, average over 72 h, end of treatment | – | VCO2 | 75.4 ± 6.14 mL/min/kg |
| COc1cc(F)c([C@@H]2CNC(=O)[C@H]2NC(=O)Nc2ccccc2)c(F)c1 | LV haemodynamics | rat, myocardial ischaemia-reperfusion | 1 mg/kg, 1008 h, 6 weeks post-injury | – | left ventricular end-diastolic pressure | 5 ± 6 mmHg |
| CC(C)C[C@H](NC(=O)[C@@H](Cc1c[nH]c2ccccc12)NC(=O)[C@H](Cc1ccc(O)cc1)NC(=O)[C@H](CO)NC(=O)[C@H](Cc1c[nH]c2ccccc12)NC(=O)[C@H](Cc1c[nH]cn1)NC(=O)[C@@H]1CCC(=O)N1)C(=O)N[C@@H](CCCNC(=N)N)C(=O)N1CCC[C@H]1C(=O)NCC(N)=O | – | Chinese boys, central precocious puberty | intramuscular, 22.5 mg day 1, month 6, month 6, unchanged Tanner stage IV | reference: screening | boys at genital stage | 0% |
| CN(C)C(=O)c1cc2cnc(Nc3ccc(N4CCNCC4)cn3)nc2n1C1CCCC1 | RNA-seq GSEA, refers to: HALLMARK_PEROXISOME gene set | MB002 tumour | concentration not given | reference: vehicle, direction not given | normalized enrichment score | 1.13 |
| C[C@H]1C[C@H]2CSC(N)=N[C@@]2(c2nc(NC(=O)c3ccc(OC(F)F)cn3)cs2)CO1 | refers to: Aβx-40 | healthy adults, plasma | 50 mg once daily, day 7 | reference: placebo | percent change from baseline | -61.9% |
| COc1nc(NCc2cn(-c3ccc(NC(=O)c4ccc(Cl)cc4)cc3)nn2)nc(OC)n1 | cell viability, MTT | normal colonocytes, rat | 72 h | – | IC50 | 18.3 ± 8.52 nM |
| CC(C)[C@H](C(=O)Nc1ccc(C(=O)NO)cc1)c1ccccc1 | volumetric MRI | human, right meningioma | dose not given, day 133 | – | tumour volume | 9.2 cm3 |
| COc1ccc(-c2cncc(N[C@@H](C)c3cccc(NC(=O)c4cncc(C)c4)c3)n2)cc1OC | refers to: rno-miR-100-5p | rat SU5416/hypoxia model, lung | dose not given, unit not given | reference: SU5416/hypoxia vehicle | delta delta Ct | 0.738 |
| C[C@H]1O[C@@H](O[C@H]2CC[C@@]3(C)[C@@H](CC[C@]4(C)[C@@H]3C=C[C@]35OC[C@@]6(CCC(C)(C)C[C@H]63)[C@@H](O)C[C@]54C)[C@]2(C)CO)[C@H](O)[C@@H](O[C@@H]2O[C@H](CO)[C@@H](O)[C@H](O)[C@H]2O)[C@H]1O | qRT-PCR, refers to: SIRT1 | chronic-plus-binge ethanol-fed mice, liver | dose not given, high dose | reference: control mice | mRNA level | 1.92 fold change and 1.19 fold change and 1.15 fold change |
| CCCCC1(CCCC)CN(c2ccccc2)c2cc(SC)c(OCC(=O)N[C@@H](C(=O)NCC(=O)O)c3ccccc3)cc2S(=O)(=O)C1 | refers to: 7α-hydroxy-4-cholesten-3-one | human, plasma | 5 mg once daily, day 8 | – | plasma C4 | 64.8 ng/mL |
| CCCN(O)N=Nc1ccc(S(=O)(=O)Nc2nccs2)cc1 | carrageenan-induced paw edema | Wistar rat | oral, 100 mg/kg, 3 h after carrageenan, together with: carrageenan 1% subplantar | higher = more edema | paw edema volume | 5.39 ± 0.66 a.u. |
| CSCCNc1nc(SCCC(F)(F)F)nc2c1ncn2[C@@H]1O[C@H](COP(=O)(O)OP(=O)(O)C(Cl)(Cl)P(=O)(O)O)[C@@H](O)[C@H]1O | light transmittance aggregometry | human patients, platelet-rich plasma | dose not given, 30 min, together with: ADP 20 µM | reference: patients | patients with IPA above 80% | 5% |
| CCc1cc(-c2noc(-c3cc(OC)nc(C4CCCC4)c3)n2)cc(C)c1OC[C@@H](O)CO | – | Wistar rats, blood | oral gavage, 0.1 10 mg/kg | – | maximal lymphocyte count reduction | 2570 ± 90 lymphocytes/µL |

| SMILES | test | test system | conditions | scale | endpoint | value |
| --- | --- | --- | --- | --- | --- | --- |
| C[C@@H](NC(=O)N1C(=O)[C@H](Cc2ccnc(N)c2)[C@H]1C(=O)O)C1CCCCC1 | – | human | iv infusion, 1.0 mg/kg/h, 24 h | – | ACT AUEC | 17300 h·s |
| OC(CCN1CCCCC1)(c1ccccc1)C1CC2C=CC1C2 (centres unmarked) | resting-state EEG | healthy elderly humans | oral, 4 mg, eyes closed, LS mean | reference: baseline | change, Gamma EEG power, in O2-Pz | -0.7% |
| NCC(=O)Nc1cncc(-c2nn3c(=O)cc(N4CCNCC4)nc3s2)c1 | ADP-induced platelet aggregation, light transmission aggregometry | stable CAD patients on aspirin | subcutaneous, 0.04 mg/kg, 24 h post-dose, together with: ADP 20 µM | – | inhibition of platelet aggregation | 0% |
| CN[C@@H]1COc2c(S(=O)(=O)NC(=O)Nc3c4c(cc5c3CCC5)CCC4)cnn2C1 | refers to: IL-1β | human participants, whole blood ex vivo | 1800 mg single dose, 1 h, together with: LPS/ATP | reference: baseline | inhibition | 99.9% |
| CCCN(O)N=Nc1ccc(S(=O)(=O)Nc2onc(C)c2C)cc1 | carrageenan-induced paw edema | Wistar rat | oral, 100 mg/kg, 1 h after carrageenan, together with: carrageenan 1% subplantar | higher = more edema | paw edema volume | 5.39 ± 0.93 a.u. |
| c1ccc(-c2n[nH]cc2-c2ccnc3ccccc23)nc1 | kinase binding, competitor, MIB/MS competition, refers to: CEK1 | Candida albicans cell lysate | 1 µM | reference: DMSO | log2 fold change | 1.54 |
| O=C(O)c1cccc(-c2noc(-c3ccccc3F)n2)c1 | DCPIP reduction | K562 cell lysate | 10 µM, 60 min | – | DR activity | 0.0576 OD/min and 0.06 OD/min and 0.0531 OD/min |
| O=S(=O)(Nc1nccs1)c1ccc(N=NN(O)c2ccccc2)cc1 | carrageenan-induced paw edema | Wistar rat | oral, 100 mg/kg, 3 h after carrageenan, together with: carrageenan 1% subplantar | higher = more edema | paw edema volume | 5.78 ± 0.41 a.u. |
| Cc1ccc(C(=O)OCc2ccc([C@@H](CN)C(=O)Nc3ccc4cnccc4c3)cc2)c(C)c1 | tonometry | NZW rabbit, magnetic bead-induced ocular hypertension | ocular, 0.02%, 8 h | – | IOP | 35.7 mmHg |
| CCN(O)N=Nc1ccc(S(=O)(=O)Nc2nccs2)cc1 | carrageenan-induced paw edema | Wistar rat | oral, 100 mg/kg, 3 h after carrageenan, together with: carrageenan 1% subplantar | higher = more edema | paw edema volume | 5.81 ± 0.68 a.u. |
| C[C@H](Oc1ccc(Br)cc1-c1ccon1)C(=O)O | first response latency | human, tibialis anterior muscle | 100 mg, 15 Hz, single ascending dose | – | difference from placebo | -0.335% |
| CN(O)N=Nc1ccc(S(=O)(=O)Nc2nccs2)cc1 | carrageenan-induced paw edema | Wistar rat | oral, 100 mg/kg, 1 h after carrageenan, together with: carrageenan 1% subplantar | higher = more edema | paw edema volume | 6 ± 1.33 a.u. |
| CO[C@H]1CC[C@H](N2C(=O)CNc3ncc(-c4ccc(C(C)(C)O)nc4)nc32)CC1 | flow cytometry | stimulated monocytes, human, blood | 30 mg single dose, 1.5 h, mean | reference: baseline | pAKT change from baseline | -47.1% |
| COc1ccc(C2=N[C@@H](c3ccc(Cl)cc3)[C@@H](c3ccc(Cl)cc3)N2C(=O)N2CCNC(=O)C2)c(OC(C)C)c1 | histology | Dmd C3333Y mice, quadriceps | dose not given | – | centrally nucleated fibres | 83% and 91% and 86% and 78% and 92% |
| CCN1[C@@H](C(=O)NC23CCC(C(=O)O)(CC2)CC3)[C@H](c2cccc(Cl)c2F)[C@]2(C(=O)Nc3cc(Cl)ccc32)C12CCCCC2 | – | human | 100 mg | – | time to partial response | 32 weeks |
| Cn1cc(Nc2nccc(-c3ccc4c(c3)CN(C3COC3)CC[C@H]4NC(=O)c3cn(C(C)(C)C)nn3)n2)cn1 | refers to: B Cell Receptor Signaling | splenic B cells, mouse | in vivo, 30 mg/kg, IgD-activated B cells | reference: vehicle, positive = activation | pathway activation z-score | 2.08 |

Excerpt of the above:
| SMILES | test | test system | conditions | scale | endpoint | value |
| --- | --- | --- | --- | --- | --- | --- |
| C[C@H]1C[C@H]2CSC(N)=N[C@@]2(c2nc(NC(=O)c3ccc(OC(F)F)cn3)cs2)CO1 | refers to: Aβx-40 | healthy adults, plasma | 50 mg once daily, day 7 | reference: placebo | percent change from baseline | -61.9% |
| COc1nc(NCc2cn(-c3ccc(NC(=O)c4ccc(Cl)cc4)cc3)nn2)nc(OC)n1 | cell viability, MTT | normal colonocytes, rat | 72 h | – | IC50 | 18.3 ± 8.52 nM |
| CC(C)[C@H](C(=O)Nc1ccc(C(=O)NO)cc1)c1ccccc1 | volumetric MRI | human, right meningioma | dose not given, day 133 | – | tumour volume | 9.2 cm3 |
